Assay results pooled from the literature.
± gives the spread as reported. In brackets after ≈: the same amount, converted by molar mass.

The chains behind the UniProt entries cited, without tags or fusion partners.
UniProt Q9UQB9, whole entry: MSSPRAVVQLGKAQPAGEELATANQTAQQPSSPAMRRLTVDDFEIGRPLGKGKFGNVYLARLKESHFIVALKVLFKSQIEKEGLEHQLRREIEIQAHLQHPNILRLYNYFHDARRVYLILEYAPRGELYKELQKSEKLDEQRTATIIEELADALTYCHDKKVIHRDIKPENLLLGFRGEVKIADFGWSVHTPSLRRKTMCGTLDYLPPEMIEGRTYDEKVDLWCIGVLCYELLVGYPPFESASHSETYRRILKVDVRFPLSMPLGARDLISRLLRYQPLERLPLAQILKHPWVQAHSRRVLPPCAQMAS
UniProt P54760, whole entry, looked up: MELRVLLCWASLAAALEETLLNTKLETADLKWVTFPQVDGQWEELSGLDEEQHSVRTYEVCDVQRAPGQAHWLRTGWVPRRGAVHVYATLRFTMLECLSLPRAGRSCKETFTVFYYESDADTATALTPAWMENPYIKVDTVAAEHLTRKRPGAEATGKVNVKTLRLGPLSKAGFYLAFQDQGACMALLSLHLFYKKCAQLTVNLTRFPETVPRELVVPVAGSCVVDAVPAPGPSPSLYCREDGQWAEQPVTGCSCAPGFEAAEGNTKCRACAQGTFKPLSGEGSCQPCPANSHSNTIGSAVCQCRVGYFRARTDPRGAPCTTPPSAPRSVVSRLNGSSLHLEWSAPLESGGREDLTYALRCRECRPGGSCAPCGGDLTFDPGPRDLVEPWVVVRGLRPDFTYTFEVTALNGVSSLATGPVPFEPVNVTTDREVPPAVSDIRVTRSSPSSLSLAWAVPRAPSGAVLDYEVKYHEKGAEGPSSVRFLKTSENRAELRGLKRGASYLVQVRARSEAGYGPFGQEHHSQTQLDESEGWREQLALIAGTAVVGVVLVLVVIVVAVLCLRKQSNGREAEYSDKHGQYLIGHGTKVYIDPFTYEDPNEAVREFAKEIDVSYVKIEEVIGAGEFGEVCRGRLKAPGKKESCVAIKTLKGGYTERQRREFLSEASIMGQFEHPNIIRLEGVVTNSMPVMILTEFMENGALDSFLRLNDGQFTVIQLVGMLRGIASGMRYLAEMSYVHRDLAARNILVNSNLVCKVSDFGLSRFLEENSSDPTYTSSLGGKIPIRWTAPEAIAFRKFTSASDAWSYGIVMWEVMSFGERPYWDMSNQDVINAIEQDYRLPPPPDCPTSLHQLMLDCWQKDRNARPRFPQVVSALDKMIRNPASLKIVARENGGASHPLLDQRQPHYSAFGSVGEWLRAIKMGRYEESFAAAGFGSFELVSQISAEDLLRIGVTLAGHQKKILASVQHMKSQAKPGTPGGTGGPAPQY

SMILES | target or system | assay | test system | conditions | scale | measurement | result
O=c1ccc2nc3ccc(OCc4ccc([N+](=O)[O-])o4)cc3oc-2c1I | Mycobacterium tuberculosis | – | mc2 6206 clofazimine-resistant fbiC mutant | 7 days | – | MIC90 | > 256 µM
CN(CC(=O)N(Cc1ccc(C2CCCCC2)cc1)c1ccc(C(=O)O)cc1)S(=O)(=O)c1c(F)c(F)c(F)c(F)c1F | vesicular stomatitis virus | viral replication | VSV-eGFP | concentration not given | – | inhibition | 66%
O=[N+]([O-])c1ccc(N2CCN(c3ccc([N+](=O)[O-])cc3[N+](=O)[O-])CC2)c([N+](=O)[O-])c1 | Candida albicans | – | clinical isolate | – | – | MIC | > 500 µg/mL
O=c1ccc2nc3ccc(OCc4ccc([N+](=O)[O-])o4)cc3oc-2c1 | Mycobacterium tuberculosis | – | mc2 6206 PA-824-resistant ddn mutant | 7 days | – | MIC90 | 0.25 µM (≈ 0.0846 µg/mL)
CCN1CCN(Cc2ccc(NC(=O)c3ccc(C)c(/C=C/c4cnc5[nH]ccc5c4OC)c3)cc2C(F)(F)F)CC1 | Aurora kinase C (AURKC, Homo sapiens, UniProt Q9UQB9) | inhibitor, cell-based kinome screen | – | 5 µM | baseline: no inhibitor | log2 fold change | 0.536
CC[C@H](C)[C@H](NC(=O)[C@H](Cc1ccc(O)cc1)NC(=O)[C@H](CO)NC(=O)[C@H](CCC(=O)O)NC(=O)[C@H](CCC(=O)O)NC(=O)[C@H](CC(C)C)NC(=O)[C@H](CCCCN)NC(=O)[C@H](CCCCN)NC(=O)[C@@H](NC(=O)[C@@H](NC(=O)[C@H](CCC(=O)O)NC(=O)[C@H](CCC(=O)O)NC(=O)[C@H](CC(C)C)NC(=O)[C@H](CCCCN)NC(=O)[C@H](CCCCN)NC(=O)[C@H](CCSC)NC(=O)[C@H](CCC(=O)O)NC(=O)[C@H](Cc1ccc(O)cc1)NC(=O)[C@H](CCC(=O)O)NC(=O)[C@H](CC(C)C)NC(=O)[C@H](CC(=O)O)NC(=O)[C@H](CC(C)C)NC(=O)[C@H](CC(C)C)NC(=O)[C@@H](NC(=O)[C@@H](NC(=O)[C@H](CC(N)=O)NC(=O)[C@@H](NC(=O)[C@H](CCC(N)=O)NC(=O)[C@@H](NC(=O)[C@H](CC(C)C)NC(=O)[C@H](CO)NC(C)=O)[C@@H](C)O)[C@@H](C)CC)[C@@H](C)O)[C@@H](C)O)C(C)C)C(C)C)C(=O)N[C@@H](CC(=O)O)C(=O)N[C@@H](CC(C)C)C(=O)N[C@@H](CCCCN)C(=O)N[C@@H](CCC(=O)O)C(=O)N[C@@H](CC(C)C)C(N)=O | influenza A virus | viral replication | MDCK, A/Puerto Rico/8/34 H1N1 | 72 h | – | EC50 | > 20 µM
O=[N+]([O-])c1cn2c(n1)OC[C@@H](OCc1ccc(OC(F)(F)F)cc1)C2 | Mycobacterium bovis | – | BCG Tac^r10.1, thyA H147Y missense | TA-C-resistant thyA mutant | – | MIC50 | 0.2 µM (≈ 0.0719 µg/mL)
CC#C/C(=N\OC[C@H]1COCCN1)c1ccc2ncnc(Nc3ccc(OCc4cccc(F)c4)c(Cl)c3)c2c1 | EPHB4 (Homo sapiens, UniProt P54760) | kinase activity | – | 10 µM | – | inhibition | 10.9%
CC1(C)CCC(Cc2cc(O)c(-c3ccccc3)c(=O)[nH]2)CC1 | Mycobacterium tuberculosis | – | inhA G96V resistant mutant | – | – | MIC50 | > 5 µM
CCC(C)C1NC(=O)/C(=C(/C)O)C1=O (stereo not shown) | Arabidopsis thaliana | apo-pHusion imaging, item: apoplastic pH | elongating root cells | 10 µM | – | time to pH increase | 2 to 4 min
CC(C)[C@H](NC(=O)[C@H](Cc1c[nH]c2ccccc12)NC(=O)[C@H](CCCNC(=N)N)NC(=O)[C@H](Cc1c[nH]c2ccccc12)NC(=O)[C@H](Cc1c[nH]c2ccccc12)NC(=O)[C@H](CCCNC(=N)N)NC(=O)[C@@H](N)CCCNC(=N)N)C(=O)N[C@H](C(=O)N[C@@H](Cc1c[nH]c2ccccc12)C(N)=O)C(C)C | Mycobacterium bovis | – | TMC 1012, 7H9 broth | 48 h, 37 °C, together with: sodium pyruvate 40 mM | – | MIC | 10 µM
O=c1ccc2nc3ccc(OCc4ccc([N+](=O)[O-])s4)cc3oc-2c1 | Mycobacterium tuberculosis | – | mc2 6206, fbiC mutant, clofazimine-resistant | – | – | MIC90 | inactive
NNC(=O)c1ccncc1 | Mycobacterium bovis | – | BCG Tac^r7.2, thyA W133S missense | TA-C-resistant thyA mutant | – | MIC50 | 0.4 µM (≈ 0.0549 µg/mL)
CCOc1ccc2nc3ccc(=O)cc-3oc2c1 | Mycobacterium tuberculosis | – | mc2 6206 bedaquiline-resistant MmpL5 regulator mutant | 7 days | – | MIC90 | 33 µM (≈ 7.96 µg/mL)
Cc1cc2c(c(=S)[nH]1)C(=O)O/C2=C\c1c[nH]c2ccc(F)cc12 | Influenza A virus | viral replication, CPE, MTT | MDCK, A/Puerto Rico/8/34 (H1N1) | 72 h | – | EC50 | 17.8 ± 10.6 µM
Nc1ccc(C(=O)O)c(O)c1 | Mycobacterium bovis | – | BCG Tac^r2.3, fbiA L109P missense | TA-C-resistant F420 mutant | – | MIC50 | 0.4 µM (≈ 0.0613 µg/mL)
O=c1ccc2nc3ccc(OCCCCF)cc3oc-2c1 | Mycobacterium tuberculosis | – | mc2 6206 PA-824-resistant ddn mutant | 7 days | – | MIC90 | 17 µM (≈ 4.88 µg/mL)
CO[C@H]1/C=C/O[C@@]2(C)Oc3c(C)c(O)c4c(O)c(c(/C=N/N5CCN(C)CC5)c(O)c4c3C2=O)NC(=O)/C(C)=C\C=C\[C@H](C)[C@H](O)[C@@H](C)[C@@H](O)[C@@H](C)[C@H](OC(C)=O)[C@@H]1C | Mycobacterium bovis | – | BCG Tac^r7.1, thyA mutant | TA-C-resistant thyA mutant | – | MIC50 | 0.0016 µM (≈ 0.00132 µg/mL)
O=c1oc(-c2ccc([N+](=O)[O-])cc2)ns1 | Mycobacterium bovis BCG | – | – | 25 µM | – | reduction in viable count | 0.8 log CFU

For quick reference, copied from above:
SMILES | target or system | assay | test system | conditions | scale | measurement | result
Nc1ccc(C(=O)O)c(O)c1 | Mycobacterium bovis | – | BCG Tac^r2.3, fbiA L109P missense | TA-C-resistant F420 mutant | – | MIC50 | 0.4 µM (≈ 0.0613 µg/mL)
